Measured values collected from several papers.
A part holds a random share of what one study measured. “And” joins repeats or separate records; there may be more than shown.
Chain of UniProt Q8NE63 (whole entry, looked up): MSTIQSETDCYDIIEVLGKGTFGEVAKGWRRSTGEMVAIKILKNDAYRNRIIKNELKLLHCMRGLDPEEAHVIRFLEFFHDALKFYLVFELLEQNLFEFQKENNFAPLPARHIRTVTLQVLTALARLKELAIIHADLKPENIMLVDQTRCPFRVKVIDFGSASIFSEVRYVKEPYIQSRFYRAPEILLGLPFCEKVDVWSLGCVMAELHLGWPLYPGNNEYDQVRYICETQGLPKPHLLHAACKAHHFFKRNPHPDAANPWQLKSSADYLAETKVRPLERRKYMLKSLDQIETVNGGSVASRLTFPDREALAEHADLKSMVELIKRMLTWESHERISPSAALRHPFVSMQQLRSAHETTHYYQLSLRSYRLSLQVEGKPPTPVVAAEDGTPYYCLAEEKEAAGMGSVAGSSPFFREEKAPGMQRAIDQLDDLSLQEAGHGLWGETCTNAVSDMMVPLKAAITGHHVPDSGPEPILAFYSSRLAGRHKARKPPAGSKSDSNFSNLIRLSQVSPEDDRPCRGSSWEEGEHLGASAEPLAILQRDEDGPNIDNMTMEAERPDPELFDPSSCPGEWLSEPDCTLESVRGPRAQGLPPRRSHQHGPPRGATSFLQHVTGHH
Chain of UniProt Q8TBX8 (whole entry, looked up): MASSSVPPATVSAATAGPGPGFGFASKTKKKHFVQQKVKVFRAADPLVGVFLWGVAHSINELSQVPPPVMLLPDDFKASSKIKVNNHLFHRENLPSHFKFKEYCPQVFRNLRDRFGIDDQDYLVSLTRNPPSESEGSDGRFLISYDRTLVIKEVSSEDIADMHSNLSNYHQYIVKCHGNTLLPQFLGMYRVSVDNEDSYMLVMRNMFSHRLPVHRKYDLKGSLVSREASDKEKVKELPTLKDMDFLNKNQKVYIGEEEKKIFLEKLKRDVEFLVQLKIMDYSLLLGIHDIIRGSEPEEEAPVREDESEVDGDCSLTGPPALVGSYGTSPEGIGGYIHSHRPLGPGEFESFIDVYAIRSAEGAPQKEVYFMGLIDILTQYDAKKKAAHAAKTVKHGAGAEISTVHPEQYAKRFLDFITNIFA

Study 1 — method: phase 2a trial; host: idiopathic pulmonary fibrosis patients
Compound: CC(C)n1cnc(-c2ccc(F)cc2)c1-c1ncc(C(=O)Nc2ccc(N3CCN(C)CC3)cc2)[nH]1
The “patients with decreased appetite” was 0% (30 mg once daily, adverse event grade 3).
It gave 0% for “patients with decreased appetite” (60 mg once daily, adverse event grade 4).
For dose not given, adverse event grade 2, all dose arms pooled: “patients with decreased appetite” read 0%.
It gave 0% for “patients with decreased appetite” (60 mg once daily, adverse event grade 3).

Study 2 — SMILES: CCOc1ccc(Nc2c3c(nc4ccccc24)CCC3)cc1; organism: Leishmania donovani; strain: DD8
The inhibition was 67% and 68% and 66% (parasite killing; intracellular amastigotes; 20 µM, 24 h).
It gave 100% and 99% for inhibition (parasite killing; promastigotes; 66.66 µM, 24 h).
The inhibition was 100% (parasite killing; promastigotes; 66.66 µM, 48 h).
For parasite viability, resazurin; promastigotes; 0.0033 µM: inhibition read -2% and 5% and -5% and -3%.

Study 3 — read-out: enzyme activity; mode: inhibitor; concentration: 77 µM; reference: untreated
Target: DNA polymerase theta, ATPase domain (POLQ, Homo sapiens, UniProt O75417)
Chain of UniProt O75417 (whole entry, unmodified, looked up): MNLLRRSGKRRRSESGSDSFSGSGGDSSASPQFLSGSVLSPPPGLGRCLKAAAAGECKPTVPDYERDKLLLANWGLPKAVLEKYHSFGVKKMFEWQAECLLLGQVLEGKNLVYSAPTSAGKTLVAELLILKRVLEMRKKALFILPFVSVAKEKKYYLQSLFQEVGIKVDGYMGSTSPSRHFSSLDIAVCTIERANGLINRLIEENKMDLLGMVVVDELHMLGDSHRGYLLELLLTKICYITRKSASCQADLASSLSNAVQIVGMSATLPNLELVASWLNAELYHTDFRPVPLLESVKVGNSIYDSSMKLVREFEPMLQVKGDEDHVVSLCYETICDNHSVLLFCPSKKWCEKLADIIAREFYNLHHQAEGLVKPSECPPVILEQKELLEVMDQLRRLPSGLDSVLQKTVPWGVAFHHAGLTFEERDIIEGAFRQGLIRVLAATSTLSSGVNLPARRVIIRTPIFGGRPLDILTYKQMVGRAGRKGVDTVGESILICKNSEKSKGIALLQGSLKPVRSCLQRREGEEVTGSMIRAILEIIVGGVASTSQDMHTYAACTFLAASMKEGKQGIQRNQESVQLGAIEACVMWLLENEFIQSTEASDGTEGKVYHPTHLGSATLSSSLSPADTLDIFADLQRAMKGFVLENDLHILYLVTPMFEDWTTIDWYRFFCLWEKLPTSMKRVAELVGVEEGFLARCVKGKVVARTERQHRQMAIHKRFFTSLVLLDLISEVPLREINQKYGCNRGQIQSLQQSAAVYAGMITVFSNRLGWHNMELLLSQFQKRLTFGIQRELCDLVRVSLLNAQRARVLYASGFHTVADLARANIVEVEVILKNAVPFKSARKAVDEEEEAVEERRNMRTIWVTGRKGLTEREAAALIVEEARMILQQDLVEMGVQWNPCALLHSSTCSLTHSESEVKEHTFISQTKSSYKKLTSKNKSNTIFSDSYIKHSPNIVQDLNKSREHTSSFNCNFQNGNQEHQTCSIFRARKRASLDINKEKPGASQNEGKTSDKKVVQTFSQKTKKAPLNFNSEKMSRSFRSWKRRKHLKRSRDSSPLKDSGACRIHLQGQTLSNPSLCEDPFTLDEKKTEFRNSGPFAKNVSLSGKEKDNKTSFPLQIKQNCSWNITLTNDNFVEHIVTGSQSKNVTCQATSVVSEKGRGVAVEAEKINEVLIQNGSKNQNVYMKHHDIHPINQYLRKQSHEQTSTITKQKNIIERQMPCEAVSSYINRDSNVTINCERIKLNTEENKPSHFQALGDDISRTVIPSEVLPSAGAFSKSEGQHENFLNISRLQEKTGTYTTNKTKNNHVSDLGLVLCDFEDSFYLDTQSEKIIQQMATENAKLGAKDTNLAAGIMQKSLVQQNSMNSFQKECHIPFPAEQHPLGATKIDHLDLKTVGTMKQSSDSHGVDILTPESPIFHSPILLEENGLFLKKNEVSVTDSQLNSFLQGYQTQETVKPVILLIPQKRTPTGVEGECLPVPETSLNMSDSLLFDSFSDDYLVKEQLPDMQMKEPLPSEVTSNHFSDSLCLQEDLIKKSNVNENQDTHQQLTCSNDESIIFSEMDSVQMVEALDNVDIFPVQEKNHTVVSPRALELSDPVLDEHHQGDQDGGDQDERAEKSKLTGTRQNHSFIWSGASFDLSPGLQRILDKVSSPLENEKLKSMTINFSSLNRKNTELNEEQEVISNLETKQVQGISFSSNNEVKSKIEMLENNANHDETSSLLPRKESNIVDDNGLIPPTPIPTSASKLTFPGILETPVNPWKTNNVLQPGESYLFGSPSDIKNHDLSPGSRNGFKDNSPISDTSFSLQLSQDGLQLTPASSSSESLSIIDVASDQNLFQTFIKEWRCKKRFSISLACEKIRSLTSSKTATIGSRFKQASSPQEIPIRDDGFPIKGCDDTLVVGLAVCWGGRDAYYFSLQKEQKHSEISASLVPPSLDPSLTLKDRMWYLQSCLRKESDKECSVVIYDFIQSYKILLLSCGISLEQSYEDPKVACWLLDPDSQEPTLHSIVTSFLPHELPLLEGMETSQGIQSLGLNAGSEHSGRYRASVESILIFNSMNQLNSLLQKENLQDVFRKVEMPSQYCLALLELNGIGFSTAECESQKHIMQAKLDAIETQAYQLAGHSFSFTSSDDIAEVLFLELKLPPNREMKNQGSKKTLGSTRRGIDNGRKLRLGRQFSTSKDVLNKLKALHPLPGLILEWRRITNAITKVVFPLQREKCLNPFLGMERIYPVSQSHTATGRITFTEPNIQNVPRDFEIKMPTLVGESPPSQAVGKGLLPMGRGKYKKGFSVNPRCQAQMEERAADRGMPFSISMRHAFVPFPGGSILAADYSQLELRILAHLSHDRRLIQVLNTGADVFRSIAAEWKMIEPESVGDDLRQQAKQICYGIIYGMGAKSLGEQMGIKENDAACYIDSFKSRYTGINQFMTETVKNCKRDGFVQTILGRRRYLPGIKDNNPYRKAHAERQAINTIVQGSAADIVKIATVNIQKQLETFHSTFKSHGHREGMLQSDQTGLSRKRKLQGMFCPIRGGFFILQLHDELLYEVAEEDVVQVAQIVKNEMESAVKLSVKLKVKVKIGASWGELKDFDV
`C[C@H](CCC(=O)O)[C@H]1CC[C@H]2[C@@H]3CC[C@@H]4C[C@H](O)CC[C@]4(C)[C@H]3CC[C@]12C` gave a remaining activity of 86.7% and 94.3%.
`Cn1ccc2cc(NC(=O)Nc3cccnc3)ccc21` gave a remaining activity of 99.7%.
`Nc1ncnc2c1c(-c1ccc(Oc3ccccc3)cc1)cn2C1CCCC1` gave a remaining activity of 101%.
The remaining activity of `COc1cc(N)c(Cl)cc1C(=O)OCCN1CCCCC1` is reported as 96.4%.

Study 4 — read-out: binding; concentration: 1 µM
SMILES: COc1ccc2[nH]c3c4[nH]c5ccc(OC)cc5c4c4c(c3c2c1)C(=O)NC4=O
The remaining binding was 83% (MARK3 (Homo sapiens, UniProt P27448)).
For CSNK2A2 (Homo sapiens, UniProt P19784): remaining binding read 56%.
The remaining binding was 87% (SRC (Homo sapiens, UniProt P12931); competition with immobilised ligand).
The remaining binding was 100% (ERBB2 (Homo sapiens, UniProt P04626); competition with immobilised ligand).

Study 5 — method: competition with immobilised ligand; concentration: 1 µM
Structure (SMILES): COc1ccc2c(c1)O[C@H](c1ccc(OC)c(OC)c1)C[C@@H]2NC(=O)C1(c2ccc3c(c2)OC(F)(F)O3)CC1
Myosin-IIIb (MYO3B, Homo sapiens, UniProt Q8WXR4); binding — remaining binding: 39%.
HASPIN (Homo sapiens, UniProt Q8TF76); cell-free assay — remaining binding: 91%.
PRKG2 (Homo sapiens, UniProt Q13237); cell-free assay — remaining binding: 89%.
MAP3K15 (Homo sapiens, UniProt Q6ZN16); cell-free assay — remaining binding: 100%.
It gave 84% for remaining binding (EPHB2 (Homo sapiens, UniProt P29323); cell-free assay).
PIP4K2C (Homo sapiens, UniProt Q8TBX8); cell-free assay — remaining binding: 83%.
For GRK4 (Homo sapiens, UniProt P32298); cell-free assay: remaining binding read 100%.
For ALK (Homo sapiens, UniProt Q9UM73, L1196M); cell-free assay: remaining binding read 100%.
The remaining binding was 100% (PHKG1 (Homo sapiens, UniProt Q16816); cell-free assay).
ACVR2B (Homo sapiens, UniProt Q13705); cell-free assay — remaining binding: 100%.
The remaining binding was 100% (CDK8 (Homo sapiens, UniProt P49336); cell-free assay).
The remaining binding was 94% (DSTYK (Homo sapiens, UniProt Q6XUX3); cell-free assay).
FLT3 (Homo sapiens, UniProt P36888, D835V/ITD); cell-free assay — remaining binding: 72%.
For HIPK4 (Homo sapiens, UniProt Q8NE63); cell-free assay: remaining binding read 91%.
For FLT3 (Homo sapiens, UniProt P36888, K663Q); cell-free assay: remaining binding read 100%.
For PTK2 (Homo sapiens, UniProt Q05397); cell-free assay: remaining binding read 100%.

Repeated from above (study 1):
The “patients with decreased appetite” was 0% (30 mg once daily, adverse event grade 3).
It gave 0% for “patients with decreased appetite” (60 mg once daily, adverse event grade 3).
For dose not given, adverse event grade 2, all dose arms pooled: “patients with decreased appetite” read 0%.
It gave 0% for “patients with decreased appetite” (60 mg once daily, adverse event grade 4).
